Measured values from different studies.
Every numbered part comes from another study and shows a few of its results, in no order.

Series 1
Target: RNA binding protein fox-1 homolog 2, RRM domain, GST-SBP tag (RBFOX2, Homo sapiens, UniProt O43251-10, residues 100-194)
Technique: RNA Bind-n-Seq
Form: RNA
Sample: in vitro
Concentration: 365 nM
Notes: natural RNA segment, single round, ends assumed
Relative to: no-protein control
Direction: higher = stronger binding
All sequences stand within: GGGAGUUCUACAGUCCGACGAUC … UGGAAUUCUCGGGUGCCAA
Target sequence (chain): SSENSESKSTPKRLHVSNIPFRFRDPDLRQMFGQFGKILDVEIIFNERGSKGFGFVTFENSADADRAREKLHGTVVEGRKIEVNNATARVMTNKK
Strand | RBNS enrichment (R)
ACAAAGAAAUCCUUCUACCUGAGAAGGCAGAAAUAGACCUGCCCGUGGGAGGAGCAUCAAGGGGCCUGUCUCUAGGAGCUGUGUGGUUCUGGGCAGUGGUCUGUUCACCC | 0.322
GCAUGGCCUUCCCUUCCUCUAGACAGAGGAGGGCUCCCAGCAGCCUUUCUAGUUUGGCAGUGCGACUGAGAGAAGAUUCCACACAGGAACAUCUUUCUUCUCCAUCACUC | 0.271
AGCCAAGUGAGGUCCCUGGAGGUUCAGGGCUUGGUGACGAGGUAGGCCGUGAUCACAUAUUCUACAGUCCAAAAGAGGGCCCGGAGCUCAGCAAUUACUCACGCCGUCAC | 0.44
UUUACAUGAAUCUUUAAACAAUUCUGUGAGCAAAGUUUGUAGCUGCUGGAUUAUUGUCUGUCUUUAUAGCAAGUUCCAGUAAACCACAAGUAUGGCAAAGCUUAUCCAAU | 0.277
UGGUUUUGUUUCUUUCAAAAUAAUUUUUUUUCAAAAGAAUAACAAGGGUUAGGCAAAUGGGGGACCUUCCUGUGUGCUCUUGGGGGUCUGCUCAGCAUCUGGAAAUUUGG | 1.42
ACUGUGUCAUAGUGGACCCUGACUGCAGGAGUCAGGCCUCUCAGCCCAGGGCAGAUGCUGCCUUUAUCUUCUAUCAUUUGUAUGACGUGGCUGGAUGGAGUUUCUUUUGU | 0.284
AUCUCCAGCAGUCUUGGUGCUGCUGUGCCCCGGGCUCUGGUCUGGCCGGGUGUGAGGGAAGUCAGACCUUGCAGGGCCCCAGGCCGCAGAAGAUUGCAUUUCACAGUCGU | 0.746

Series 2
Target: Prothrombin, mature alpha-thrombin (F2, Homo sapiens, UniProt P00734)
Technique: aptamer microarray, sandwich
Form: DNA with 2'F-ANA
Sample: in vitro
Concentration: 200 nM
Notes: whole 15-mer aptamer, many near background
Added: Cy3 exosite-II aptamer, 400 nM
Direction: higher = stronger binding
Strand: GGTTGGTGTGGTTGG
Modification | mean fluorescence intensity [a.u.]
2'F-ANA at 3 11 14 | 722
2'F-ANA at 1 6 7 8 11 14 15 | 58.8
2'F-ANA at 1 4 5 6 8 9 10 12 13 15 | 213
2'F-ANA at 3 4 5 7 9 10 13 | 49.3
2'F-ANA at 1 5 9 10 13 14 | 57.9
2'F-ANA at 2 3 5 7 9 10 12 13 | 105
2'F-ANA at 2 3 6 9 10 13 | 345
2'F-ANA at 2 6 7 8 11 | 394

Series 3
Target: RING finger protein unkempt homolog, zinc fingers 1-6, GST-SBP tag (UNK, Homo sapiens, UniProt Q9C0B0, residues 30-357)
Chain of UniProt Q9C0B0 (30-357, looked up): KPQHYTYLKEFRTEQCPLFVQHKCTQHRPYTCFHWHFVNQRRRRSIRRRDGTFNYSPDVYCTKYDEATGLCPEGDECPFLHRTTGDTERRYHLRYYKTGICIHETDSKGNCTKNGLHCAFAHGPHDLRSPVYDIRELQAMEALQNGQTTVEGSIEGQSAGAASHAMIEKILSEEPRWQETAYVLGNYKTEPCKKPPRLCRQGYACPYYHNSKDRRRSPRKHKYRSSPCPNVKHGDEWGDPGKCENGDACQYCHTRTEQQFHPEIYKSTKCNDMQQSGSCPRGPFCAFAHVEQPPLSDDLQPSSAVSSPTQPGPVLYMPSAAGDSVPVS
Technique: RNA Bind-n-Seq
Form: RNA
Sample: in vitro
Concentration: not given
Notes: RNA with constant flanks, ends assumed
Relative to: input RNA pool
Direction: higher = stronger binding
All sequences stand within: GGGAGUUCUACAGUCCGACGAUC … CAACAGAGGAUUGAGCAUCA
Strand | bound/input enrichment [ratio]
UUUCUCGGGAUUAUUGCUCUUCUGUCUAUAAAUUUUGAAUGAUACUGUGCCUUAAUUGGUUUUCACCGUUUAAGUGUGUAUCAUUAUCAAAGUUGAUUAAUUUGGCUUCAUAGUAUAAUG | 0.625
CCAUGGGGAUGCUCUGGGGAGUGGCUGGACACUCAGCAUUGCUUCAUUUAUGACUUUGACAACCGACCGGCUUCUGGGGGUUUUUGUUUCUGUUUUUUUAAUUUAAUGAUAUUAAAACUU | 0.222
UCCCAUAUGAAAAAAGGAGAGAACACUGGCAUCUGUUGAAAUUUGGAAGUUCUGAAAUUACCGUAUUUUUAAAAAUUGCACUGAAGUGUAUACACAUAAAGCAGGUCUUUUAUCCAGUGA | 0.449
UAUAGCACUGAAUAAAUGAUGCAAGUUGUCAAUGGAUGAGUGAUCAACUAAUAGCUCUGCCCGUAAUUGAUUUAUUUUUCUUCAAUAAAGUUGCAUAAACCAAUGAGUUAGCUGCCUGGA | 1.04
AAGACAUACGGGGAGCCUGAGUCUGUGGGCAUGUCCAAGAGCUUCCGCCAGCCGGGGACCUCACUUGCCGAUGCUGAUACCUUCCAUCACCAGGUGCGUGAUGACAUUUUCUCUUCUUUA | 0.14
CCUCCUUUUGCAACUGGACUGCCUCACUAUGGACAUAUACUUGCGGGUACAAUUAAAGAUACCGUUACAAGAUAUGCUCACCAGAGUGGGUUUCAUGUUGACAGAAGAUUUGGAUGGGAU | 0.102
GAAGCAAGAGCUUUUGCAGAAAAGAAUGGUUUGUCAUUCAUUGAAACUUCGGCCCCCGACUCUACAAAUGUAGAAGCUGCUUUUCAGACAAUUUUAACAGAGAUUUACCGCAUUGUUUCU | 0.291

Mixed results
Molecule | target | test | system | conditions | how to read | quantity | result
PhoQ, residues 284 288 289 292 302 303 ASVMEA | PhoP, residues 12 14 15 18 19 LQHIR (Escherichia coli, UniProt P23836) | Sort-seq, refers to: YFP reporter | E. coli | PhoQ-PhoP variant library, added: 10 µM Mg2+ | relative to: high Mg2+ state, higher = stronger signaling | fold induction | 0.587

Excerpt of the above (series 2):
Modification | mean fluorescence intensity [a.u.]
2'F-ANA at 1 6 7 8 11 14 15 | 58.8
